Measured values collected from several papers.
Every numbered part comes from another study and shows a few of its results, in no order. Changes are numbered by the printed parent chain.
Sequence of UniProt Q9M1R4 (whole entry, looked up): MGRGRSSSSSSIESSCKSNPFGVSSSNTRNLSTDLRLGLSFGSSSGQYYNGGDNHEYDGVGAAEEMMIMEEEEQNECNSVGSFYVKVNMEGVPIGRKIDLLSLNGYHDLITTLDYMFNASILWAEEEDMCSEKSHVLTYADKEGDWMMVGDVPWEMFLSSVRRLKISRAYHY
Sequence of UniProt Q9FKM7 (whole entry, looked up): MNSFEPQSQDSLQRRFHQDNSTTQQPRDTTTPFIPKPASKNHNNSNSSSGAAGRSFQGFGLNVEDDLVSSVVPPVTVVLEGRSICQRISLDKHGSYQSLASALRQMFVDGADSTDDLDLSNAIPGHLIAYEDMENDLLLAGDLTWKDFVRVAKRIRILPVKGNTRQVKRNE
Sequence of UniProt Q84WU6 (whole entry, looked up): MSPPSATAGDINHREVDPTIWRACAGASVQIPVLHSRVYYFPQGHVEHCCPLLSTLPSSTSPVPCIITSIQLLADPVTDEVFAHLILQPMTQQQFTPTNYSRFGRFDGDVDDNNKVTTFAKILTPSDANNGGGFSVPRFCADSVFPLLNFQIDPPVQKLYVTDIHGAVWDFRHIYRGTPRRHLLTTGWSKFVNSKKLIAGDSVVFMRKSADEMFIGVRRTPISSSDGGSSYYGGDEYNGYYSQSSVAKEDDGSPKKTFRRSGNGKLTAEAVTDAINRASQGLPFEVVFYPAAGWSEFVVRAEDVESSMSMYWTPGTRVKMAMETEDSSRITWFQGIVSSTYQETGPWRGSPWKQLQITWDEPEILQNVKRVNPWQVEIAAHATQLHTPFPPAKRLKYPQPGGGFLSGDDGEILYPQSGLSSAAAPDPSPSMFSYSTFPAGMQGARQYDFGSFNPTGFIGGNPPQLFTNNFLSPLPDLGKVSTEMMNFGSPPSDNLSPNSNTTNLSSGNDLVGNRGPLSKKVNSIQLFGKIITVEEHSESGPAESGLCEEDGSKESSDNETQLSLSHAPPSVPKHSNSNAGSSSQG
Sequence of UniProt Q9XFM0 (whole entry, looked up): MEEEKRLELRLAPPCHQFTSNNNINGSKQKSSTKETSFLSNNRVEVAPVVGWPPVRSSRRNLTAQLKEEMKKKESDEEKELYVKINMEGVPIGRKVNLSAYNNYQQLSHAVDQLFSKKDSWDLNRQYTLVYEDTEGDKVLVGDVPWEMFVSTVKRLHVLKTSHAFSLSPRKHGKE

Series 1
Molecule: B1 (IAA16)
Method: two-hybrid
Baseline: out of 4 tests
Reading: higher = firmer interaction
B1: IAA16 (Arabidopsis thaliana, UniProt O24407); chain MINFEATELRLGLPGGNHGGEMAGKNNGKRGFSETVDLKLNLSSTAMDSVSKVDLENMKEKVVKPPAKAQVVGWPPVRSFRKNVMSGQKPTTGDATEGNDKTSGSSGATSSASACATVAYVKVSMDGAPYLRKIDLKLYKTYQDLSNALSKMFSSFTIGNYGPQGMKDFMNESKLIDLLNGSDYVPTYEDKDGDWMLVGDVPWEMFVDSCKRIRIMKGSEAIGLAPRALEKCKNRS
partner | setting | positive tests
IAA28 (Arabidopsis thaliana, UniProt Q9XFM0) | – | 3
IAA33 (Arabidopsis thaliana, UniProt Q9FKM7) | – | 2
ARF17 (Arabidopsis thaliana, UniProt Q84WU6) | weak activation fusion | 0
IAA30 (Arabidopsis thaliana, UniProt Q9M1R4) | weak activation fusion | 2

Series 2
Target: RNA binding protein fox-1 homolog 2, RRM domain, GST-SBP tag (RBFOX2, Homo sapiens, UniProt O43251-10, residues 100-194)
Method: RNA Bind-n-Seq
Molecule type: RNA
Matrix: in vitro
Concentration: 365 nM
Notes: natural RNA segment, single round, ends assumed
Baseline: no-protein control
Reading: higher = stronger binding
Constant ends, left off below: GGGAGUUCUACAGUCCGACGAUC … UGGAAUUCUCGGGUGCCAA
Target sequence (chain): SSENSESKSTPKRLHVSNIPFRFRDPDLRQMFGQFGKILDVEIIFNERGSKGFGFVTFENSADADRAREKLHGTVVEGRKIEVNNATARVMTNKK
Oligonucleotide | RBNS enrichment (R)
AUGGUUUUGCUGUAAACUGUGUUUGGAACUCUGCUGAAGUGUUGCUGAAAAGCAUGGUGCUGGUAACAGUUCAACAAUCCGUGGCUGCUCAUUCUUGCCGACUCCUCCCC | 3.64
AGGGACUUACGCAUUUGGCCAAUGUCAAAAGAACAGAACUUUGCCCACUGCACACUUGCUGUGUACAAUGACUGAGCCCUUUCUUGUAGUUUGUUUCCUUGUUUGAGAGG | 0.398
UAUUAAGAUCAUUACUGCAUGUGCCCUAAAAACCCAAGUUUUCUAUUCCCUUAGGACAGAAAAUUGCAUGUGAGGUGGGAUAAUCGAGUUUCAGUGACCCACGUCAGUUA | 7.41
AUUAUUUUAAUACAGGAAAAGAAAAGAUUUAGUAAUUUCUUACCAUGCUAAUAUGUAAAGUUCAUGCCAUCCAGGCAUUUAAGAGCGAUCCUCAUCCCUUCAGCAAUAUG | 0.383
UAUGUCCCUCAACCCCCGAAACAAGGCUUCUCUCAGCCUCCCCACCAGUGAUGGAUAACAGCUCCUAUUCUCAGCUGACCUGACUGAGCCAACCCAUGAACUCUUCACUC | 0.321
UCCUGUGGAGGGAGGAGGGUGUACGUUCGUUUACUAUGGAUAGUUUUUCCUUUGAAUUAAAUUGUAGCGUGUCAGGCUUUCUUUUUUCUUUUCUUUUCCUUUUUUUAAAC | 1.18
AAAUUUCAUACUCUUUUGUCUUUGGAGAUUCCAUUGUGGACAGUAAUACGCAGUUACAGGGUGUAGUCUGUUUAGAUUCCGUAGUUCGUGGGUAUCAGUUUCGGUAGAGG | 0.414
CUGGCGCAUGAAAUUCUAUUAAAAAUGCAUUCUUCUGAAUAAAAAGAGUAUUCACUAUUUAACUUCAAAACUAUGGCUGUGGUCUUCUAUUGGUCUGUUUUCCACUAACA | 0.512
UCCUGACUUCAAAUGAUCCACCCACAUCCACCUGCCAGAGUGCUGAGAUUACAGGCGUGAGCCACCGCACCUGGCCAAUGUUCUUUUAUAUACUCAUGUUUUCUAACAAA | 0.578
AGAUGAAGGACUUGGCGAACAGAAAGCCCUUCGAGAUCUUGUGUACCCCACCUUCCCACACUGUGAGCUAAUGAUGUGUGGUUUCUCUGCACAUAAGUAAAUGUCUUCAC | 0.365
GAAAUUGAAAAUGACCAAAAUCAGGAACCACAGAUUUGUGCCCAUUCCUAAUAUUUUGUUCUGCAAAUUAAUGUAUAAUUUGAGGUGAAAUUCAGUUAUAAAGUCAAGGA | 0.292
UGGUCAAAACAAACUUCCUUUUCCCUUGAUCACCCUGCACGCAGCUGCCCAGCUUCCAGUUUUUAAAGAGAUGAACAGCUCUCACUUCCUGACUCAGUUUCUCUUGUUGG | 3.14

Series 3
Target: ABI1, truncated, D143A, DHFR fusion (Arabidopsis thaliana)
Method: DHFR PCA, deep sequencing
Matrix: yeast
Notes: methotrexate growth selection, single substitutions
Together with: (+)-ABA 1.4 µM
Baseline: wild-type fitted maximum
Reading: higher = stronger binding
Starting sequence: PYL1, truncated, DHFR fusion (Arabidopsis thaliana); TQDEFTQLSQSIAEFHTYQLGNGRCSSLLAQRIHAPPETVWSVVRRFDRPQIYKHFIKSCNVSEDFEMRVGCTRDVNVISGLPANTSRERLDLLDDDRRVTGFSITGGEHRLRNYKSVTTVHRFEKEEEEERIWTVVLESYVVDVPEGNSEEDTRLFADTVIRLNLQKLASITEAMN
Variant | relative binding score
K58I | -12.3%
I12V | 35.8%
A13Y | 5.26%
Q51C | -16.4%
F124I | 75.4%
K116Y | -11.7%
N114L | 0.493%
E109F | -0.515%
S117D | -5.25%
L20H | 75.6%
V44E | -20.7%
V62A | 8.29%
E128H | 67.9%
N77K | 73%

Series 4
Target: DDIT3, bZIP domain (human)
Method: DHFR protein complementation
Matrix: yeast
Notes: single substitutions, most at no-binding floor
Baseline: wild-type JUN-FOS pair
Reading: higher = stronger binding
Starting sequence: JUN, bZIP domain (human); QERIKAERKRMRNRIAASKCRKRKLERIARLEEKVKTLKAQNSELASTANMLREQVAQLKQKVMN; partner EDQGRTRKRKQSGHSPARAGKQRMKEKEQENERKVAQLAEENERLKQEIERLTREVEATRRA
Variant | binding fitness
L52S | -1.2 natural log
T37M | 0.512 natural log
R53A | -0.111 natural log
A49N | -0.951 natural log
L38V | -1.16 natural log
K39P | -1.19 natural log
E44F | -0.123 natural log
M51A | 0.163 natural log
K36A | 0.115 natural log
L59G | -0.0995 natural log
K36D | -0.003 natural log
A46N | 0.0975 natural log
E33D | -0.035 natural log
A29R | -0.000803 natural log
L52E | -0.967 natural log
A46V | 0.0496 natural log
E32G | -0.401 natural log
A57G | -0.0803 natural log
E54K | -0.0833 natural log
L38Y | -0.676 natural log
L59V | -0.25 natural log

Series 5
Target: Histone acetyltransferase KAT6A, winged helix 2, GST fusion (KAT6A, Homo sapiens, UniProt Q92794, residues 85-181)
Method: protein binding microarray
Molecule type: double-stranded DNA, one strand shown
Matrix: in vitro
Concentration: not given
Notes: 8-mer, flanks averaged, mean of 2 arrays, mostly near background
Baseline: not given
Reading: higher = stronger binding
Construct (chain): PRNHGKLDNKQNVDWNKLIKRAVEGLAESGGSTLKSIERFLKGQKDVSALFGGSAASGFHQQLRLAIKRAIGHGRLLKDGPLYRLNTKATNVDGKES
Oligonucleotide | E-score
TTAGATAA | 0.000425
AGCACCTG | 0.193
GACCAAGC | -0.00891
GCGCTTAA | -0.0872
CGGACGGA | 0.0421
CCTCACTC | 0.00834
ATCCATCA | -0.195
ATCGACAA | -0.0763
CGTACTGC | 0.0689
AAGCGACT | -0.012
CTCAGACC | -0.0038
CTATAACA | -0.0611
ATGGAAAT | -0.02
CCGTCGGA | 0.0202
GAAGGCCA | -0.0107
AGATCGTG | -0.169
ACGTCCAG | -0.198
AAGACATT | -0.15
ATATGAAT | -0.0364
ACACAAGG | -0.0334
AGTGAAGA | -0.121
CCGGCCCC | 0.0963
CATTGTCG | 0.0028
CGGTCTGA | 0.0914

Series 6
Target: CCNB1, cyclin fold, Cln2 fusion (human)
Method: yeast growth competition, sequencing
Matrix: yeast
Notes: weak parent motif
Baseline: not given
Reading: higher = stronger binding
Starting sequence: SAMHD1 docking peptide (human); ASKSRVQLFKDDP
Variant | normalised enrichment score
V6T | 0.217
K10H | 0.105
S2Q | -0.00286
Q7F | 0.214
F9C | 0.125
R5A | 0.371
R5P | -0.57
S2V | 0.597
S4R | 0.657
D12R | -0.26
S2P | 0.375
S2H | 0.55
R5Y | 0.174
K3A | 0.337
K10Y | -0.399
S4T | 0.503
Q7Y | 0.286
Q7W | 0.334
L8E | 0.233
L8A | 0.185
Q7G | 0.0994
S4G | 0.0239
S4P | 0.0649
D12P | 0.349
D12A | -0.0197

Excerpt of the above (series 6):
Variant | normalised enrichment score
Q7W | 0.334
L8A | 0.185
S2H | 0.55
S2V | 0.597
S4G | 0.0239
S4P | 0.0649
S2P | 0.375
V6T | 0.217
S2Q | -0.00286
F9C | 0.125
K10Y | -0.399
L8E | 0.233
